Experimental data gathered from unrelated publications.
Numbers after ± are the reported error. Where no end group is shown, it is not given here. No end group written: not given here. The star is where a group is joined.
ESR2: Estrogen receptor beta (ESR2, Homo sapiens, UniProt Q92731)
CNR2: Cannabinoid receptor 2 (CNR2, Homo sapiens, UniProt P34972)
Aequorin-1 C152S/C159S/C187S: Aequorin-1 (Aequorea victoria, UniProt P07164, C152S/C159S/C187S)
Kelch domain-containing protein 2: Kelch domain-containing protein 2 (UniProt Q9Y2U9)

Substance	tested on	test	system	conditions	scale	measurement	result
Clc1ccc(C2CC3CCC2N3)cn1 (racemic)	Chrnb2/Chrna6 (Rattus norvegicus, UniProt P12390+P43143, L273S/L280S/L348M/R364A/R365A/R367A)	ion current, agonist		concentration not given, rat receptor, unit not given	relative to: acetylcholine maximum current	efficacy	0.54 ± 0.02
C=C1C[C@H](C)C[C@@H]2CC=C[C@@H](C/C=C\C(=O)O[C@H]([C@@H](O)/C=C/[C@@H]3CC(C)=CCO3)C[C@@H]3O[C@H]3[C@@H](O)C1)O2	microtubules (bovine, glutaraldehyde-fixed)	competitor		25 µM, together with: [3H]paclitaxel 2.5 µM		[3H]paclitaxel bound per tubulin	0.5 ± 0.018
CC(C)C[C@H](NC(=O)CNC(=O)[C@H](CC(C)C)NC(=O)[C@@H]1CCCN1C(=O)CNC(=O)[C@H](Cc1ccccc1)NC(=O)Cc1ccc2ccccc2c1)C(=O)N[C@@H](CCCNC(=N)N)C(=O)N[C@@H](CO)C(=O)N[C@@H](CCCCN)C(=O)O	MMP9 (Homo sapiens, UniProt P14780)	substrate, HPLC		500 µM, 72 h, pH 7.5, 37 °C		hydrolysis product	77%
O=C(O[C@@H]1Cc2c(O)cc(O)cc2O[C@@H]1c1cc(O)c(O)c(O)c1)c1cc(O)c(O)c(O)c1	KDM4E (Homo sapiens, UniProt B2RXH2)	inhibitor, FDH-coupled			relative to: 20 µM over 2.5 µM ferrous ammonium sulfate	IC50 ratio	5
GSSFLSPEHQRVQQRKESKKPPAKLQPK-{Gly(Biotin)} (not fully specified; biotin-labelled)	mouse GOAT H338A	substrate	peptide	10 µM, 5 min		acyl transfer	inactive
Oc1ccc(-c2c[se]cc2-c2ccc(O)cc2)cc1	ESR2	antagonist	HEK293T	highest tested concentration, 24 h, together with: estradiol 10 nM	relative to: estradiol alone	efficacy	49 ± 9%
CCOc1c(S)cnn(-c2ccccc2)c1=O	srtA (Staphylococcus aureus, UniProt Q2FV99)	enzyme activity, inhibitor		concentration not given		potency improvement	> 20 fold
CC(C)[C@@H](CN1CCN(c2cccc(O)c2)[C@@H](C)C1)NC(=O)c1ccc(Oc2ccc(O)cc2)cc1	OPRM1 (Homo sapiens, UniProt P35372)	antagonist	CHO	together with: DAMGO		Ke	71 ± 19 nM
O=Cc1ccccc1	Chilo suppressalis CSP2	binding, competitive fluorescence displacement		30 µM, pH 7.4		fluorescence intensity	48.6 ± 2.47%
CSc1cccc(CC(=O)N[C@H]2CCOC2=O)c1	lasR (Pseudomonas aeruginosa, UniProt P25084)	reporter gene, agonist	Escherichia coli JLD271/pJN105L/pSC11	100 µM	relative to: OdDHL 100 µM	activation	32%
DDESEYINIPDGE	CSK (Homo sapiens, UniProt P41240)	substrate, coupled enzyme	peptide	pH 7.4, room temperature, together with: 1 mM ATP, 5 mM MnCl2		kcat/Km	130 M⁻¹ s⁻¹
NC(=O)N1CCC[C@H](NC(=O)c2nn(Cc3ccc(F)cc3)c3ccccc23)C1	CNR2	calcium mobilization, agonist	CHO-K1 expressing Gαq16		relative to: CP55,940 maximum	Emax	74 ± 6%
Oc1ccc(-c2cc(Cl)c(Cl)c(Cl)c2Cl)cc1Cl	Aequorin-1 C152S/C159S/C187S	aequorin bioluminescence, inhibitor		2 h, together with: coelenterazine		detection limit	0.5 µM
Ac-QDEVD-pNA (N-acetyl, C-pNA; pNA = O=[N+]([O-])c1ccc(N*)cc1)	Caspase-3 (CASP3, Homo sapiens, UniProt P42574)	substrate, colorimetric p-nitroanilide release		pH 7.5, room temperature		kcat	0.95 ± 0.05 s⁻¹
IQGGDDSNVIGAIGGA	Kelch domain-containing protein 2	native mass spectrometry	peptide, 200 mM ammonium acetate	20 µM Kelch domain-containing protein 2, pH 7	relative to: total Kelch domain-containing protein 2 signal	fraction of protein bound	0.9%
C[C@H](CCC(=O)NCC(=O)O)[C@H]1CC[C@H]2[C@@H]3CC[C@@H]4C[C@H](O)CC[C@]4(C)[C@H]3CC[C@]12C	Ephrin type-A receptor 2 (Mus musculus, UniProt Q03145)	ELISA, ephrin-A1-Fc displacement				Schild slope	1.35
TLDIFRN (disulfide (positions not given here)) (cyclic, disulfide)	HIV-1 neutralising antibody 4E10	phage binding, M13 phage ELISA		concentration not given	lower = stronger binding	binding titer	8.8e+06 M13/mL
Cc1cc(O)ccc1-c1c[se]cc1-c1ccc(O)cc1C	ESR2	antagonist	HEK293T	highest tested concentration, 24 h, together with: estradiol 10 nM	relative to: estradiol alone	efficacy	94 ± 10%

Substance	tested on	test	system	conditions	scale	measurement	result
anthraquinone-neomycin	poly(dA)•2poly(dT) triplex	DNA binding		concentration not given, pH 5.5, KCl 150 mM		heat capacity change	-110 ± 15 cal/(mol·K)
N=C(N)NCCC[C@@H]1NC(=O)[C@@H]2CCCN2C(=O)[C@H]2CCCN2C(=O)[C@H](Cc2ccccc2)NC(=O)[C@H](Cc2c[nH]cn2)NC(=O)[C@H](CC(N)=O)NC(=O)[C@H](Cc2ccccc2)NC(=O)[C@H](Cc2ccccc2)NC1=O	Melanocortin receptor 5 (Mus musculus, UniProt P41149)	agonist?		concentration not given		activity	inactive
melittin		CD titration	POPC 75% POPG 25% vesicles	pH 7.0, 40 °C		free energy of partitioning	-7.16 kcal/mol
N[C@@H](Cc1ccc(O)c(I)c1)C(=O)O	Iodotyrosine deiodinase (Haliscomenobacter hydrossis, UniProt F4KU78)	substrate		pH 7.4		kcat	0.58 ± 0.005 s⁻¹
COCCCn1nc(C(=O)NC(C)(C)c2cccc(C(N)=O)c2)c2ccccc21	CNR2	calcium mobilization, agonist	CHO-K1 expressing Gαq16		relative to: CP55,940 maximum	Emax	11 ± 7%
CSCC[C@H](NC(C)=O)C(=O)N[C@@H](C)C(=O)N[C@@H](C)C(=O)N[C@H](C(=O)N[C@@H](C)C(=O)NCC(=O)N[C@@H](CC(C)C)C(=O)N[C@@H](Cc1ccc(O)cc1)C(=O)NCC(=O)N[C@@H](CC(C)C)C(=O)NCC(=O)N[C@@H](CCCCN)C(=O)N[C@@H](CCCCN)C(=O)N[C@@H](CCCNC(=N)N)C(=O)N[C@@H](CCC(N)=O)C(=O)N[C@@H](Cc1c[nH]cn1)C(=O)N[C@@H](CCCNC(=N)N)C(=O)N[C@@H](CCCCN)C(=O)N[C@@H](CCCCN)C(=O)N[C@@H](CCC(N)=O)C(N)=O)C(C)C	Kcnma1 (Mus musculus, UniProt Q08460)	blocker, patch clamp		3 µM, prepulse -80 mV, test pulse 200 mV, together with: high Ca2+	relative to: before block	relative current amplitude	~1
Oc1cccc(-c2cc(Cl)ccc2Cl)c1O	Aequorin-1 C152S/C159S/C187S	aequorin bioluminescence, inhibitor		2 h, together with: coelenterazine		detection limit	132 µM
WSHPQFEKGGGSGGGSGG	Kelch domain-containing protein 2	native mass spectrometry	peptide, 200 mM ammonium acetate	20 µM Kelch domain-containing protein 2, pH 7	relative to: total Kelch domain-containing protein 2 signal	fraction of protein bound	0.9%
DMRSIFHDNPFN	HIV-1 neutralising antibody 4E10	phage binding, M13 phage ELISA	peptide	concentration not given	lower = stronger binding	binding titer	2.7e+07 M13/mL
RYRHPTPMYY	PIM1 (Homo sapiens, UniProt P11309)	substrate, coupled enzyme	peptide	pH 7.4, room temperature, together with: 1 mM ATP, 20 mM MgCl2		kcat	2.9 ± 0.1 s⁻¹
CC(C)[C@@H](CN1CCN(c2cccc(O)c2)[C@@H](C)C1)NC(=O)c1ccc(Oc2cccc(O)c2)cc1	OPRK1 (Homo sapiens, UniProt P41145)	antagonist	CHO	together with: U69593		Ke	1.85 ± 0.51 nM
N[C@@H](Cc1c[nH]c2ccccc12)C(=O)O	IDO1 (Homo sapiens, UniProt P14902)	stopped-flow absorption		pH 7.4, 20 °C, ligand-free ferric enzyme		kon	5500 M⁻¹ s⁻¹
COc1cc2cc(c1Cl)N(C)C(=O)C[C@H](OC(=O)[C@H](C)N(C)C(C)=O)[C@]1(C)O[C@H]1[C@H](C)[C@@H]1C[C@@](O)(NC(=O)O1)[C@H](OC)/C=C/C=C(\C)C2	Tubulin beta chain (Bos taurus, UniProt Q6B856)	microtubule polymerization		30 °C		near-complete inhibition conc.	3 µM
Cc1cc(-c2cc(-c3cc(C)c(O)c(C)c3)c(-c3cc(C)c(O)c(C)c3)[se]2)cc(C)c1O	ESR2	antagonist	HEK293T	highest tested concentration, 24 h, together with: estradiol 10 nM	relative to: estradiol alone	efficacy	79 ± 7%
CC[C@H](C)[C@H](NC(=O)[C@@H]1CSSC[C@@H]2NC(=O)[C@H]([C@@H](C)O)NC(=O)[C@H](C(C)C)NC(=O)CNC(=O)[C@H](CC(N)=O)NC(=O)[C@@H](NC(=O)[C@@H]3CCCN3C(=O)[C@H](CC(N)=O)NC(=O)[C@H](CC(N)=O)NC(=O)[C@H](CC(C)C)NC(=O)[C@H](Cc3ccc(O)cc3)NC(=O)[C@H](CCCCN)NC(=O)[C@H](CO)NC(=O)[C@@H](N)CC(N)=O)CSSC[C@H](NC(=O)[C@H](CCCNC(=N)N)NC(=O)[C@H](Cc3ccc(O)cc3)NC(=O)CNC(=O)[C@H](CO)NC(=O)[C@@H]3CCCN3C2=O)C(=O)N[C@@H](CO)C(=O)N[C@@H]([C@@H](C)CC)C(=O)N[C@@H](C(C)C)C(=O)N[C@@H](CC(=O)O)C(=O)N[C@@H](CCCCN)C(=O)N[C@@H](CCC(N)=O)C(=O)N1)C(=O)N[C@@H](CCCCN)C(=O)N[C@@H](CCCCN)C(=O)N[C@@H](CCC(=O)O)C(=O)O	Trpv1 (Mus musculus, UniProt Q704Y3, E571A)	agonist, outside-out patch		300 µM, before desensitisation		single-channel conductance	154 ± 10.8 pS
Oc1ccc(-c2cc(Br)c(-c3ccc(O)cc3F)[se]2)c(F)c1	Estrogen receptor (ESR1, Homo sapiens, UniProt P03372)	antagonist	HEK293T	highest tested concentration, together with: estradiol 10 nM	relative to: estradiol alone	efficacy	87 ± 6%
CC1(CCN2CCc3ccccc3C2)Cc2cc(Cl)ccc2C1=O (single isomer, unassigned; (-))	HTR7 (Homo sapiens, UniProt P34969)				relative to: HTR7 over other receptors except 5-HT1A	selectivity ratio	> 100 fold

For quick reference, copied from above:
Substance	tested on	test	system	conditions	scale	measurement	result
RYRHPTPMYY	PIM1 (Homo sapiens, UniProt P11309)	substrate, coupled enzyme	peptide	pH 7.4, room temperature, together with: 1 mM ATP, 20 mM MgCl2		kcat	2.9 ± 0.1 s⁻¹
Clc1ccc(C2CC3CCC2N3)cn1 (racemic)	Chrnb2/Chrna6 (Rattus norvegicus, UniProt P12390+P43143, L273S/L280S/L348M/R364A/R365A/R367A)	ion current, agonist		concentration not given, rat receptor, unit not given	relative to: acetylcholine maximum current	efficacy	0.54 ± 0.02
COc1cc2cc(c1Cl)N(C)C(=O)C[C@H](OC(=O)[C@H](C)N(C)C(C)=O)[C@]1(C)O[C@H]1[C@H](C)[C@@H]1C[C@@](O)(NC(=O)O1)[C@H](OC)/C=C/C=C(\C)C2	Tubulin beta chain (Bos taurus, UniProt Q6B856)	microtubule polymerization		30 °C		near-complete inhibition conc.	3 µM
Cc1cc(O)ccc1-c1c[se]cc1-c1ccc(O)cc1C	ESR2	antagonist	HEK293T	highest tested concentration, 24 h, together with: estradiol 10 nM	relative to: estradiol alone	efficacy	94 ± 10%
